Assay results pooled from the literature.
A part holds a random share of what one study measured.

Sample 1
Target: Ras GTPase-activating protein-binding protein 1, C-terminal RGG region (G3BP1, Homo sapiens, UniProt Q13283)
Sequence of UniProt Q13283 (whole entry, looked up): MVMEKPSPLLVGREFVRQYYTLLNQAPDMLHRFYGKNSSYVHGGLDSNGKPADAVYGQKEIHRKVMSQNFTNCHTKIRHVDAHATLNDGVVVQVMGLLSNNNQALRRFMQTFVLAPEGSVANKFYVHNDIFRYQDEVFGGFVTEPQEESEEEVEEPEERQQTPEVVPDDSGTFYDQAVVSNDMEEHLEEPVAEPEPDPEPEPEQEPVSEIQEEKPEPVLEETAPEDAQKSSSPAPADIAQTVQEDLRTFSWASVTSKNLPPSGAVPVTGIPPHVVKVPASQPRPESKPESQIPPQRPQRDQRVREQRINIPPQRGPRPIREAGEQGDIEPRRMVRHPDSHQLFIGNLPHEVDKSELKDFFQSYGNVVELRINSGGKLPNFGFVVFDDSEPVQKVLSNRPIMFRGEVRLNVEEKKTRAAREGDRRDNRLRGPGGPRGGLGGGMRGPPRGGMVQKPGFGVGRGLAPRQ
Method: RNA Bind-n-Seq
Molecule type: RNA
Medium: in vitro
Concentration: 1 µM
Setting: whole 134-nt RNA, ends assumed
Added: 150 mM KCl
Reference: input library
Reading: higher = stronger binding
Sequence	log2 enrichment
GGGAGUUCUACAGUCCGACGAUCUGGCCCUGGUGGCAUGCGGGGAGGAAGAGGUGGCCUCAUGGAUCGUGGUGGUCCCGGUGGAAUGUUCAGAGGUGGCCGUGGUGGAGUCAGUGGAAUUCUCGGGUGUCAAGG	3.6
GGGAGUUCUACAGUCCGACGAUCUCCUCAAGUCCUGUGCUACACAUCGUAUGUACCGAAUCGGCGGGCGGGCGGGAAAGUAUUAUGUUACGCCGUUCGGAUCUGCACUUCCAGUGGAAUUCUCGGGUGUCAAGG	0.942
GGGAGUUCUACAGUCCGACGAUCAAGUCCUGUGCUACACAUCGUAUGUACCGAAUCAAACCCCCAAAUUUAAACCCAAAAAAGUAUUAUGUUACGCCGUUCGGAUCUGCACUUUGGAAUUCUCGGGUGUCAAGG	-0.967
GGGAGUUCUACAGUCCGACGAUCUAAUUGAAGAACCCAUUUUGCUCAUUUUAGGCAUCGUUAAAGAAUCUGGAGUGAAGCACAAGGGAUUGAUUGAAAUACCCAAUCUUUCUGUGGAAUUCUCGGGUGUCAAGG	-0.0451
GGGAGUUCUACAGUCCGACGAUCAAGUCCUGUGCUACACAUCGUAUGUACCGAAUCGGUGGUUUUUUUGGAAAAAAAGGAAAGUAUUAUGUUACGCCGUUCGGAUCUGCACUUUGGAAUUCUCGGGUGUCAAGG	-2.06
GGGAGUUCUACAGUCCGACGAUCCACAGACAACACGCACCCACAUAGACACAGAGGGAAGGGGUUGGGAUGGGGACAGGGUGCACAGCAGGGCGGGGUAGGACCCCAGCCCCUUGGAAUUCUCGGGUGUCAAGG	0.157
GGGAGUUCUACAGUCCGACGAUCCCUGUGCUACACAUCGUAUGUACCGAAUCGGAAAAAAAGGAAAAAAAGGGAAAAAAAGGGAAAGUAUUAUGUUACGCCGUUCGGAUCUGCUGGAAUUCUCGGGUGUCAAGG	-2.07
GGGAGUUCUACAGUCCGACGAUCGCAGGAAGUAAAAACAAAUGGAAAUGCUUCGGAUAGUGGCAGGGGUGGGGGUUGCUAAGGAAAGGGUUGGAUGGGAGUGGGUAAAGAGUUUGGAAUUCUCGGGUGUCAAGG	1.8
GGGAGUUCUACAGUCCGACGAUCCAAGUCCUGUGCUACACAUCGUAUGUACCGAAUCGGUUUUUUUGGUUUUUGGUGGAAAGUAUUAUGUUACGCCGUUCGGAUCUGCACUUCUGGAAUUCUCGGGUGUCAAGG	-1.72
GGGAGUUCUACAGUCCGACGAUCUUGUUUAGCAAUCAAGGAGACCGCGAAGGCGUACAUUCCCGGGUGUUGCUUCCAGGAGAAACCCUGAACGGAGAGCUCGUCCUCUUACCAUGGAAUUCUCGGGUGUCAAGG	-0.522
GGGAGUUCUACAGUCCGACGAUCCAAGUCCUGUGCUACACAUCGUAUGUACCGAAUCGGGAAAGGGGAAAGGGAAAGGGAAAGUAUUAUGUUACGCCGUUCGGAUCUGCACUUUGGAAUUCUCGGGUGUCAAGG	1.54
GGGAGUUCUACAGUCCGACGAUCUCAAGUCCUGUGCUACACAUCGUAUGUACCGAAUCGGGAAAGGAAAGGGAAAGGGAAAGUAUUAUGUUACGCCGUUCGGAUCUGCACUUCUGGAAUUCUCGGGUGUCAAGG	-1.52
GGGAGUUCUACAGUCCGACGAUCCAAGUCCUGUGCUACACAUCGUAUGUACCGAAUCGGGCCCGGGCCCGGGGCCCGGGAAAGUAUUAUGUUACGCCGUUCGGAUCUGCACUUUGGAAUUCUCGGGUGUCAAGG	-2.27
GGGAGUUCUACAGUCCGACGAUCUUUCUAGGGAAGGUGCUUCUGGAAAAGUUGCUGAGGUCUUGUCCUAAGGUGAAUUCAGUAUAUGUUUUGGUGAGGCAGAAAGCUGGACAGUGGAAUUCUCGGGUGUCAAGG	-2.05

Sample 2
Target: Interferon regulatory factor 5, full length, phosphomimetic (IRF5, Homo sapiens, UniProt Q13568-2, residues 1-514, S451D/S453D/S456D/S462D)
Method: protein-binding microarray
Molecule type: double-stranded DNA, one strand shown
Medium: in vitro
Concentration: 940 nM top
Setting: 60-bp whole probe
Added: salmon DNA 0.4 mg/ml
Reference: random background probes
Reading: higher = stronger binding
All sequences stand within: GCCTAGCAC … GTCTTGATTCGCTTGACGCTGCTG
Sequence	fitted relative affinity [z-score]
CTCATTCTCTGTTTATGTCTGTGCTAG	3.38
TTATATATCGGGTTTCGATTAGTGCTA	5.31
GTTCAAAGTCCTACGGCTTCGTGCTAG	-0.579
GTCGGTATCCTTATCCTGACGTGCTAG	1.07
TCAATTCTCTGTTTATGACTGTGCTAG	2.13
TTAAGTTTCGGGTATCGGTTAGTGCTA	11.6
TCAAGTTTCACTTTCCAACTGTGCTAG	8.07
TCTGATTTTGCTTTCATTTAGTGCTAG	1.64
TCAGTCTTCACTCTGCTACTGTGCTAG	0.905
TTAGGTTTCGGACTGGATTAGTGCTAG	7.68
GACGGTTTCGGTCTCGGGTCGTGCTAG	15.2
TTAGCTTTCGGGTTTCGGTTAGTGCTA	7.33
TTAGGGCTGGGGTATCGGTTAGTGCTA	3.04
TTAGAACTGAGTCTCAATTAGTGCTAG	0.344
TACGGACTGGGTATCGGGACGTGCTAG	0.663
TCATTTCTAATTTACTTACTGTGCTAG	0.932
TTTGGACTGGGGTTTCGGTTAGTGCTA	5.84
TTAGGACTGCTTTTCGTTTAGTGCTAG	-0.018
ATAGGTATCGGACTGGGTTAGTGCTAG	2.96
TTAGAACTGGGGTCTGGATTAGTGCTA	-0.24
TTAGGTTTGCTTTCCCTTTAGTGCTAG	0.73
GACGGCTTCGGACTGGGGACGTGCTAG	-0.593
GACGGTTTCAGGTTTCGGGACGTGCTA	5.75
GACCGACTGCTTATCCTGACGTGCTAG	-0.303

Sample 3
Target: Histone acetyltransferase KAT6A, winged helix 1, GST fusion (KAT6A, Homo sapiens, UniProt Q92794, residues 1-85)
Method: protein binding microarray
Molecule type: double-stranded DNA, one strand shown
Medium: in vitro
Concentration: not given
Setting: 8-mer, flanks averaged, mean of 2 arrays, mostly near background
Reference: not given
Reading: higher = stronger binding
Construct (chain): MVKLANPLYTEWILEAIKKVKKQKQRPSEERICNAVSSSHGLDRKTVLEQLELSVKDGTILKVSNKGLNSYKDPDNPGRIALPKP
Sequence	E-score
ACCAAACT	-0.121
AACTCGTC	-0.209
GGACAACA	-0.18
CGCCCTAA	0.148
AGCCTCCT	-0.0933
AGCGAGGA	-0.0282
CGCCTCGC	0.189
CGTTCTCA	-0.0254
ACGCCGCG	0.409
ATTAGATA	-0.142
GCGTGGGA	0.134
CAACCTTG	-0.000535
ACCAAAGT	-0.193
ACAAGGGG	-0.104
CAAACTGC	0.00485
ATGCGACG	0.373
ATCTCATC	-0.137
ACCGGTAC	0.253
GGAGACGA	-0.07
AAGTGCAC	-0.126
AAATTTAA	-0.227
ATCTGACC	-0.0787
GAATCATC	-0.14
AAACGCAC	0.1
ATTTAGCA	-0.139

Sample 4
Target: RNA binding protein fox-1 homolog 2, RRM domain, GST-SBP tag (RBFOX2, Homo sapiens, UniProt O43251-10, residues 100-194)
Method: RNA Bind-n-Seq
Molecule type: RNA
Medium: in vitro
Concentration: 365 nM
Setting: natural RNA segment, single round, ends assumed
Reference: no-protein control
Reading: higher = stronger binding
Construct (chain): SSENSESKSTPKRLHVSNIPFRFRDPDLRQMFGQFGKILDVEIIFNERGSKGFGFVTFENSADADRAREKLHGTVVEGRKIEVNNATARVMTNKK
Sequence	RBNS enrichment (R)
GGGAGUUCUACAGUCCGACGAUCUUCCGUGGGGGCACCUGACAAUGACCCGGGUGGAGAUGGGGCAUGGAGGAGUAGGAAGACCCAGCCCUAUUUGACUGGGGAGAGGAGGAUCUGGAGUCCUUCAUGCCCAGUGGAAUUCUCGGGUGCCAA	1.65
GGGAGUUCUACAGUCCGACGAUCAAGUCUCCCCAUCUCCUUACAACUGUGUGCUAAGUAAGUAACUUGGCCAAGGGUAGUUUUCAGCUCAAUUUAUAGAAUAGUCCAAAGAGACUUUGAGAAACAUGGUGAUAUGGAAUUCUCGGGUGCCAA	0.518
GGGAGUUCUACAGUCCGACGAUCUUUCACCAGUCACAUAAACACUAUGUGGACUGGCAGUGGUUCUCUGCUCCUCCACAUCCUGGAGCGUCCCAGCACCUCCCCACCUACUUUUGUUCCCAAUGUCAGCCACCUGGAAUUCUCGGGUGCCAA	0.854
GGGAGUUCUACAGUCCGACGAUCGCUUGUAGAGGGACAUUCCCUCCUUCCCAGUUUUAACUGGUGGACCACAGUGGGGGGAAAAACAUUCAAGCGAUAUAAAGACACUUGGGCUCUUUGCAGAUGCCUAUACUUGGAAUUCUCGGGUGCCAA	0.593
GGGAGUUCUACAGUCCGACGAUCGUCUGCAGAGCCAAAUCUUGCUCUUUCCAGCACAAUCGGGCAGCUCACGGAUUAGGAAUUAACAGCCAAAGGCUCCCACGGAAGGGACCAGAAGGGGCUGAGCCCCACCCUGGAAUUCUCGGGUGCCAA	0.375
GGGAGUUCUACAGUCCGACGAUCGCCCCUGCCUCUUCCCUAGUGUCAGCCUACUCCAGGCUCCCAGCUGCCUUGAGAGGCCGCGGACAAAGAGCUUCUAAAACCAAGAGUCUCAGCGCUUGAGGAGUGCUGCCUGGAAUUCUCGGGUGCCAA	0.641
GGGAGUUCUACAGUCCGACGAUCGUAAAUUCACAGCAGUAAGAUAAUAUAAAUUUUGUUGAAUGUAUUAACAUCAUAUGGUCUGAAAAUGUGGGUUUUUAUUUGGCACAUUUAAAUAAAAUGUUUCUAACUAGUGGAAUUCUCGGGUGCCAA	0.744
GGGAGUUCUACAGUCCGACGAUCGAUUUUGUUACAGAUGUUUAUGGUGGGGUUGGGGGUUGGGGAGCACCAUGAUCUACGGGACUGUGCUUGGUCCUUUGCUUCUGCCCGUUCCCAUCUCACCUCACCAUUCCUGGAAUUCUCGGGUGCCAA	0.558
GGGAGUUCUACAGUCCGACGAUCUAAAAUAAAGACAGCUUUGGAAAGGAGAAGGCACUUUAAAGACAUGAAACCUCUUAUUACAUGCUCUUGUAUGUUUUUAAGCAUAAUAAGCUAACUGGAUUUGGGUAUAUUGGAAUUCUCGGGUGCCAA	0.477
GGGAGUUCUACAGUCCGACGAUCUUGAAAGGACGUUCGCCAAGGGCCGUGUGUAAAUACGAACUGCGCCAUGGAGAGGAGAGGCACUGCCGGAGCCCUUGCCAGAUCUCCCUCCCUCUCUCCGUGCAGUAGCUUGGAAUUCUCGGGUGCCAA	0.387
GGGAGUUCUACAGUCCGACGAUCUUUCUUUAGCUUAAUUUUGUGUGUGCACUAACAUUCCCUGGUUUUUGUGUGAUCAUUCCGAGUGUUGCUGCAAGAUUACAGUGGACGUGAUCUUUUAGCAUGUGCUUUUAUGGAAUUCUCGGGUGCCAA	2.69
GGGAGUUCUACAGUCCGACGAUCAUCAUACCACUGCACUCCAGCCUGGGUGACAGAGCGAGACCCUGUCUCAAAAAAAAAAAAGAAUUUGGAGAUGGUUCUGCCCACUCUGGUUUCUCUGAAAAAACGAGGUAUGGAAUUCUCGGGUGCCAA	0.282
